Measurements from different studies.
Lines come from different studies, so protocols differ.
Organism: Staphylococcus aureus

| SMILES | assay | system | setting | MIC |
| --- | --- | --- | --- | --- |
| CC[C@H](C)[C@@H]1NC(=O)[C@H](CO)NC(=O)C(C)(CCCCN)NC(=O)[C@@H]2CSSC[C@@H](C(=O)N[C@@H](Cc3ccc(O)cc3)C(N)=O)NC(=O)[C@H](CCCCN)NC(=O)[C@@H]3CSSC[C@H](NC(=O)[C@H](CCCNC(=N)N)NC(=O)C(C)(CC(C)C)NC(=O)[C@H](CC(=O)O)NC(=O)[C@H](CC(=O)O)NC(=O)[C@H](CCC(=O)O)NC(=O)[C@H](CC(N)=O)NC(=O)[C@H](Cc4c[nH]c5ccccc45)NC(=O)[C@@H]4CCCN4C(=O)CNC(=O)[C@H](CC(N)=O)NC(=O)[C@@H](NC(=O)CNC(=O)[C@H](Cc4ccccc4)NC(=O)CN)CSSC[C@H](NC(=O)[C@H](Cc4ccc(O)cc4)NC(=O)CNC(=O)CNC(=O)[C@H](CCCCN)NC(=O)[C@H](Cc4ccc(O)cc4)NC(=O)CNC(=O)[C@H](CCCCN)NC1=O)C(=O)N[C@@H](C)C(=O)N[C@@H](CCCCN)C(=O)NCC(=O)NCC(=O)N[C@@H](Cc1ccccc1)C(=O)N[C@@H](C(C)C)C(=O)N3)C(=O)N[C@@H](Cc1c[nH]cn1)C(=O)NC(C)(C)C(=O)N[C@@H](Cc1c[nH]cn1)C(=O)N2 (stereo partly shown) | – | 467, methicillin-resistant mecA, cation-adjusted Mueller Hinton broth | 18 h, 37 °C | 2 µM |
| CC[C@H]1OC(=O)[C@H](C)[C@@H](OC(=O)Cc2ccccc2)[C@H](C)[C@@H](O[C@@H]2O[C@H](C)C[C@H](N(C)C)[C@H]2O)[C@](C)(OC)C[C@@H](C)C(=O)[C@H](C)[C@@H](O)[C@]1(C)O | – | BAA-977 | – | 8 µg/mL |
| CC[C@H](C)[C@H](NC(=O)[C@H](Cc1c[nH]c2ccccc12)NC(=O)[C@H](CCCCN)NC(=O)[C@H](CC(C)C)NC(=O)[C@@H](NC(=O)[C@@H](NC(=O)CNC(=O)[C@H](CCCCN)NC(=O)[C@H](Cc1c[nH]cn1)NC(=O)[C@H](CCCCN)NC(=O)[C@H](Cc1c[nH]c2ccccc12)NC(=O)[C@H](C)NC(=O)[C@H](CC(C)C)NC(=O)[C@H](CO)NC(=O)[C@@H](NC(=O)[C@H](Cc1ccc(O)cc1)NC(=O)[C@H](CCCCN)NC(=O)[C@H](CCC(N)=O)NC(=O)CNC(=O)[C@H](CCCCN)NC(=O)[C@@H](NC(=O)[C@H](C)NC(=O)[C@H](CC(C)C)NC(=O)[C@H](Cc1ccccc1)NC(=O)[C@H](CCC(N)=O)NC(=O)[C@@H](NC(=O)[C@H](CC(C)C)NC(=O)[C@H](CCCCN)NC(=O)[C@H](CCSC)NC(=O)[C@H](Cc1ccccc1)NC(=O)[C@H](C)NC(=O)[C@H](C)NC(=O)[C@@H](N)CCSC)[C@@H](C)CC)[C@@H](C)O)C(C)C)[C@@H](C)O)[C@@H](C)CC)C(=O)N[C@@H](CC(N)=O)C(N)=O | – | EMRSA 12873 | 24 h, 37 °C | 32 µg/mL |
| CC(C)C[C@H](NC(=O)[C@H](CCCCN)NC(=O)C1CCC=CCCC(NC(=O)[C@H](CCCCN)NC(=O)[C@@H](N)CC(C)C)C(=O)N[C@@H](CCCCN)C(=O)NC2CCC=CCCC(NC(=O)[C@H](CCCCN)NC(=O)CNC(=O)[C@H]3CCCN3C(=O)[C@H](CCCCN)NC2=O)C(=O)N[C@@H](CCCCN)C(=O)N1)C(N)=O (stereo partly shown) | broth microdilution | ATCC 29737, Mueller-Hinton broth | 18 h, 37 °C | 128 µM |
| CC[C@H](C)[C@@H]1NC(=O)[C@@H]([C@@H](C)O)NC(=O)CNC(=O)[C@H](CC(=O)O)NC(=O)CNC(=O)[C@H](CC(=O)O)NC(=O)CNC(=O)[C@H]2CCCCN2C(=O)[C@@H](NC(=O)[C@H](CC(=O)O)NC(=O)/C=C/CCCCCCCCCC(C)C)CNC(=O)[C@@H]2CCCN2C1=O | broth microdilution | VISA LIM strain 2, Mueller-Hinton broth, Mg2+ 10 mg/L | 16 h, added: Ca2+ 0 mM | > 128 µg/mL |
| CC[C@H](C)[C@H](NC(=O)[C@@H](CCCNC(=N)N)NC(=O)[C@H](CCCNC(=N)N)NC(=O)[C@@H]1CCCN1C(=O)[C@@H]1CCCN1C(=O)[C@H](CCCNC(=N)N)NC(=O)[C@H](Cc1c[nH]c2ccccc12)NC(=O)[C@H](CCCNC(=N)N)NC(=O)[C@@H]1CCCN1C(=O)[C@H](CC(C)C)NC(=O)[C@H](Cc1ccc(O)cc1)NC(=O)[C@@H]1CCCN1C(=O)[C@@H]1CCCN1C(=O)[C@H](CCCCN)NC(=O)[C@H](CC(=O)O)NC(=O)[C@@H](N)C(C)C)C(=O)N[C@@H](Cc1ccc(O)cc1)C(=O)N[C@@H](CC(N)=O)C(=O)N[C@H](CCCNC(=N)N)C(N)=O | broth microdilution | DSM 6247 | 18 h, 37 °C, 25% MHB2 | 128 µg/mL |
| CN[C@H](CC(C)C)C(=O)N[C@H]1C(=O)N[C@@H](CC(N)=O)C(=O)N[C@H]2C(=O)N[C@H]3C(=O)N[C@H](C(=O)N[C@H](C(=O)NCC(N)=O)c4cc(O)cc(O)c4-c4cc3ccc4O)[C@H](O)c3ccc(c(Cl)c3)Oc3cc2cc(c3O[C@@H]2O[C@H](CO)[C@@H](O)[C@H](O)[C@H]2O[C@H]2C[C@](C)(NCc3ccc(OCc4cn(CC(=O)N[C@H](C(=O)N[C@@H](CCN)C(=O)N[C@H]5CCNC(=O)[C@H]([C@@H](C)O)NC(=O)[C@H](CCN)NC(=O)[C@H](CCN)NC(=O)[C@H](CC(C)C)NC(=O)[C@@H](CC(C)C)NC(=O)[C@H](CCN)NC5=O)[C@@H](C)O)nn4)c(OC)c3)[C@H](O)[C@H](C)O2)Oc2ccc(cc2Cl)[C@H]1O | broth microdilution | VISA NRS402, tryptic soy broth | 20 to 24 h, 37 °C, 0.002% polysorbate 80 | 8 µg/mL |
| COc1ccc2ccc(O)c(/C=N/[C@H]3CCCC[C@H]3/N=C/c3ccccc3O)c2c1 | bacterial growth, broth microdilution | vancomycin-intermediate | – | > 40 µM |
| C#CCNC(=O)[C@H]1NC(=O)[C@H]2NC(=O)[C@H](NC(=O)[C@@H]3NC(=O)[C@H](CC(N)=O)NC(=O)[C@H](NC(=O)[C@@H](CC(C)C)NC)[C@H](O)c4ccc(c(Cl)c4)Oc4cc3cc(c4O[C@@H]3O[C@H](CO)[C@@H](O)[C@H](O)[C@H]3O[C@H]3C[C@](C)(N)[C@H](O)[C@H](C)O3)Oc3ccc(cc3Cl)[C@H]2O)c2ccc(O)c(c2)-c2c(O)cc(O)cc21 | – | VRSA 2 vanA | – | > 86 µM |
| N=C(N)NCCC[C@@H]1NC(=O)[C@H](CCCNC(=N)N)NC(=O)[C@@H](CCCNC(=N)N)NC(=O)[C@@H](CCCNC(=N)N)NC(=O)[C@@H](C(c2ccccc2)c2ccccc2)NC(=O)[C@@H](Cc2c[nH]c3ccccc23)NC(=O)[C@@H](C(c2ccccc2)c2ccccc2)NC1=O | – | 1193193, MRSA | – | 4 µg/mL |
